# Measured values collected from several papers.
# Compare with care: the assays were run in different laboratories. ± gives the spread as reported.
Compound,tested on,test,system,setting,scale,endpoint,value
Cc1n[nH]c(C)c1CCOC(=O)c1cccc2c1oc(=O)n2C,,,"BALB/c mouse, plasma","oral, 10 mg/kg",,Cmax,2640 ng/mL
CN(C)S(=O)(=O)c1ccc(NCCCCCCN2CCC(Nc3nc4ccccc4n3Cc3ccc(F)cc3)CC2)c2nonc12,,,Tris-HCl assay buffer,,,excitation wavelength,441 nm
O=C(NO)[C@H]1COC(c2ccc(F)cc2)=N1,,,aqueous buffer,pH 7.4,,solubility,69.5 mg/mL
NC(=O)c1cn(-c2ccc(F)cc2)c2ccc(NCc3cccnc3)cc2c1=O,,,"rat, plasma",,,unbound fraction,0.137
COc1ccc(CC(=O)OCc2ccc(-n3cccn3)cc2)cc1F,,,"PBS, 1% DMSO",pH 7.4,,kinetic solubility,97.4 µM
CCCCC(=O)n1ncc(=O)c2ccccc21,,RP-HPLC,human serum,"0.08333 h, 25 °C",,remaining compound,< 3%
NC(=O)c1cn(-c2ccc(F)cc2)c2ccc(CN3CCCS(=O)(=O)CC3)cc2c1=O,,,"rat, plasma",,,unbound fraction,0.253
O=C(OC(C(F)(F)F)C(F)(F)F)N1Cc2ccc(Br)cc2C1,,,"male CD-1 mouse, plasma","oral, 8 mg/kg, 60 min, cassette dosing",,plasma concentration,2 ± 1 ng/mL
COc1ccc2c(c1)S(=O)(=O)N(CCCCCc1ccccc1)C(=O)O2,,,DMSO,room temperature,,stability,≥ 2 weeks
O=C(NC1CC=C(c2cc3c(Nc4cc5ncsc5cc4F)ncnc3s2)CC1)NC1CCCCC1 (stereo not drawn),,,human liver microsomes,1 µM,,intrinsic clearance,< 12 mL/min/g protein
Nc1ncc(-c2ccc3ncnc(N4CCc5cc(F)c(Cl)cc54)c3c2)cn1,,,"CD1 mouse, brain","intraperitoneal, 50 mg/kg",,Cmax,13300 ng/mL
CCOc1ccccc1Nc1nnc(SCC(=O)Nc2cc(F)ccc2F)s1,,UV-vis,PBS with 1% DMSO,pH 7.4,,kinetic solubility,125 µM
Clc1ccc(-c2cc(NCCCN3CCCCC3)c3ccccc3n2)cc1,,,human liver microsomes,1 h,,remaining compound,23.9%
Cc1cc(SCc2sc(-c3cccc(F)c3)nc2C)ccc1OCC(=O)O,HEK293T,,,18 h,,CC50,> 100 µM
Oc1ccc(-n2cc(-c3ccc4cc(OCCOCCN5CCOCC5)ccc4n3)nn2)cc1,,shake-flask,Britton-Robinson buffer,"48 h, pH 6.5, 30 °C",,aqueous solubility,105 µM
CCCCN(CCc1ccc(Cl)c(Cl)c1)C[C@H](O)COc1ccc(NS(C)(=O)=O)cc1,,,rat,"intraperitoneal, up to 300 mg/kg, 1 h habituation then two hours",reference: vehicle,horizontal locomotor activity,no effect
CCCc1ccc(-c2ccc(C3=N[C@@H](C(=O)NO)CO3)cc2)cc1,,,octanol/buffer,pH 11,,logD,2.41
Cc1ncc(CN(C)c2ccc3c(c2)c(=O)c(C(N)=O)cn3-c2ccc(F)cc2)cn1,,,"rat, plasma",,,unbound fraction,0.34
CC1(CNC(=O)[C@H](CN)NC(=O)c2ccc(C#CC#Cc3ccccc3)cc2)NC(=O)NC1=O (stereo partly drawn),,,octanol/buffer,pH 11,,logD,1.71
Cc1ncc(CCc2ccc3c(c2)c(=O)c(C(N)=O)cn3-c2ccc(F)cc2)cn1,,,"rat, plasma","iv, 0.2 mg/kg, 15 min, cassette dosing",,concentration,122 nM
COc1ccc(-c2nc(C)c(CSc3ccc(OCC(=O)O)c(C)c3)s2)cc1OC,HEK293T,,,18 h,,CC50,> 100 µM
O=C(O)c1cccc(-c2nc(-c3ccccc3F)c3sccn23)c1,,,human liver microsomes,1 µM,,CLint,30.2 µL/min/mg
Cc1cc(NC(=O)c2cccc(NC(=O)C3=CC(C)(C)CCC3=O)c2)ccc1Nc1nccc(-c2cccnc2)n1,,,rat plasma,"1 µM, 120 min",,compound remaining,98.4%
CCN(CC)c1ccc2c(-c3ccccc3C(=O)N(C)CCCC(=O)N[C@@H](CC(C)C)C(=O)N[C@@H](CCCNC(=N)N)C(=O)N[C@@H](CCCNC(=N)N)C(=O)N[C@@H](C)C(=O)N[C@@H](CO)C(=O)N[C@@H](CC(C)C)C(=O)NCC(=O)O)c3ccc(=[N+](CC)CC)cc-3oc2c1,,UV/Vis,phosphate buffer 25 mM,"100 µM, pH 7.4, at λmax",,molar extinction coefficient,39300 M⁻¹ cm⁻¹
NC(=O)c1cn(-c2ccc(F)cc2)c2ccc(NCCc3ccncc3)cc2c1=O,,,"rat, plasma",,,unbound fraction,0.172
NC1CCN(Cc2ccn3ncnc(Nc4cccc(-c5cnco5)c4)c23)CC1,,,mouse,"intraperitoneal, 30 mg/kg, 90 min",,brain to plasma ratio,0.22
CN(C)c1ccc(C2=NC(C(=O)NO)CS2)cc1 (stereo not drawn),,,aqueous buffer,pH 7.4,,solubility,42.5 mg/mL
CN(Cc1cccnc1)c1ccc2c(c1)c(=O)c(C(N)=O)cn2-c1ccc(F)cc1,,,"rat, plasma",,,unbound fraction,0.082
Cc1c(-c2ccccc2)nn2c(=O)cc(-c3cccc(-c4nnn[nH]4)c3)[nH]c12,,,mouse,"2 mg/kg, 24 h",,plasma level,not detected
CCCSc1nc(N[C@@H]2C[C@H]2c2ccc(F)c(F)c2)c2nnn([C@@H]3C[C@H](O)[C@@H](O)[C@H]3O)c2n1,,,"rat, male, plasma","oral, 60 mg/kg/day ticagrelor, day 1",,AUC,45.8 µmol·h/L
COC(=O)[C@@H]1C(C=Nc2ccccc2O)=Cc2cc3c(cc2[C@H]1c1cc(OC)c(OC)c(OC)c1)OCO3,Leishmania,,mouse splenocytes,,reference: CC50 over amastigote EC50,selectivity index,> 10.1
CN(Cc1ccncc1)c1ccc2c(c1)c(=O)c(C(N)=O)cn2-c1ccc(F)cc1,,,"rat, plasma",,,unbound fraction,0.089
CC[C@H](C)[C@H](NC(=O)[C@H](Cc1ccccc1)NC(=O)[C@H](CC(=O)O)NC(=O)[C@H](CCCNC(=N)N)NC(=O)[C@H](Cc1ccccc1)NC(=O)[C@H](Cc1ccccc1)NC(=O)[C@H](CCCCN)NC(=O)[C@H](CO)NC(=O)[C@H](CC(C)C)NC(=O)[C@H](CCCNC(=N)N)NC(=O)[C@H](CCSC)NC(=O)[C@H](C)N)C(=O)N[C@@H](CC(C)C)C(=O)N[C@@H](CCC(N)=O)C(=O)N[C@@H](CCCNC(=N)N)C(=O)N[C@@H](CCCCN)C(=O)N[C@@H](CCCCN)C(=O)O,,CD thermal denaturation,2.5 mM DPC,,,melting temperature,57.1 °C
O=C1Nc2cccc(C#CC3(O)CCNCC3)c2/C1=C/c1cc2ccccc2[nH]1,,,"C57BL/6 mouse, plasma","intraperitoneal, 10 mg/kg",,AUC,1200 ng·h/mL
CC(C)n1nnc(-c2cc(O)cc(Nc3ncnn4ccc(CN5CCC(N)CC5)c34)c2)n1,,from plasma protein binding,"mouse, plasma","subcutaneous, 10 mg/kg, 90 min",,free plasma concentration,13 nM
COC(=O)[C@@H]1C(C=Nc2cncnc2NC(C)=O)=Cc2cc3c(cc2[C@H]1c1cc(OC)c(OC)c(OC)c1)OCO3,Leishmania infantum,iRFP fluorescence,"mouse splenocytes infected, amastigote, iRFP, ex vivo splenic explant",48 h,,EC50,15.6 ± 0.8 µM

# A few entries again:
Compound,tested on,test,system,setting,scale,endpoint,value
O=C(NC1CC=C(c2cc3c(Nc4cc5ncsc5cc4F)ncnc3s2)CC1)NC1CCCCC1 (stereo not drawn),,,human liver microsomes,1 µM,,intrinsic clearance,< 12 mL/min/g protein
Nc1ncc(-c2ccc3ncnc(N4CCc5cc(F)c(Cl)cc54)c3c2)cn1,,,"CD1 mouse, brain","intraperitoneal, 50 mg/kg",,Cmax,13300 ng/mL
